Measured values of several laboratories.
Each line is one published result; not all experiments were run side by side.
Read-out: metabolic stability
Host: human

SMILES	system	setting	measurement	value
Cn1c(C(C)(C)C)c/c(=N\C(=O)c2cc(C(F)(F)F)ccc2OCC(C)(C)O)n1CC1CCC1	liver microsomes	–	microsomal CLint	≤ 10 µL/min/mg
O=C(CN1C(=O)C2(CCN(C(=O)c3ccc4[nH]ncc4n3)CC2)c2c(Br)cccc21)NCC(F)(F)F	liver microsomes	–	microsomal CLint	10 µL/min/mg
Cn1ccc([C@H](CO)Nc2nc(N3C[C@@H]4C[C@H]3CO4)c3cc(-c4ccccc4)oc3n2)n1	hepatocytes	–	hepatocyte CLint	5 µL/min/10⁶ cells
Cc1cc(-c2ccc3ccccc3c2)nnc1NCCN1CCN(C)CC1	liver microsomes	–	microsomal CLint	< 23.1 µL/min/mg
O=C(CN1CN(c2ccccc2)C2(CCN(C(=O)c3cnc4[nH]ncc4c3)CC2)C1=O)NCC(F)(F)F	liver microsomes	–	microsomal CLint	32 µL/min/mg
CCCCCn1ccc(C(=O)NC(C)(C)c2ccc(CNC(C)=O)cc2)n1	liver microsomes	–	microsomal CLint	14 µL/min/mg
COc1cc2c(cc1NC(=O)c1cncn1C)C[C@H]1[C@H]3CCCC[C@@]23CCN1C	liver microsomes	–	microsomal CLint	20.8 µL/min/mg
CN(C)CCCNC(=O)C[C@H](Cc1ccc(F)cc1)NC(=O)[C@@H](Cc1ccc(Cl)cc1Cl)NC(=O)[C@H](N)Cc1ccccc1C#N	liver microsomes	1 µM	microsomal CLint	91 µL/min/mg
c1cc(OCCN2CCOCC2)cc([C@H]2CCC[C@@]3(C2)OOC2(O3)C3CC4CC(C3)CC2C4)c1 (mixture of isomers)	liver microsomes	–	microsomal CLint	57.2 µL/min/mg
CCc1nnc(-c2c(OC)cc(-c3cnc4cc(-c5cnn(C)c5)ccn34)cc2OC)o1	liver microsomes	–	microsomal CLint	< 9.6 µL/min/mg
NC1CCN(C(=O)Oc2cccc([C@H]3CCC[C@@]4(C3)OOC3(O4)C4CC5CC(C4)CC3C5)c2)CC1 (some centres unmarked)	liver microsomes	–	microsomal CLint	< 11 µL/min/mg
C[C@]12CC[C@H]3[C@@H](CCC4=CC(=O)CC[C@@]43C)[C@@H]1CC[C@@H]2O	hepatocytes	1 µM	scaled CLint	176 mL/min/kg
[2H]c1nc([2H])c(-c2nc([2H])n3c2C([2H])([2H])N=C(c2ccccn2)c2cc(C#C)ccc2-3)o1	liver microsomes	–	microsomal CLint	0.056 µL/min/mg
c1ccc([C@H]2CCC[C@@]3(C2)OOC2(O3)C3CC4CC(C3)CC2C4)c(OCCN2CCOCC2)c1 (mixture of isomers)	liver microsomes	–	microsomal CLint	282 µL/min/mg

For quick reference, copied from above:
SMILES	system	setting	measurement	value
Cn1ccc([C@H](CO)Nc2nc(N3C[C@@H]4C[C@H]3CO4)c3cc(-c4ccccc4)oc3n2)n1	hepatocytes	–	hepatocyte CLint	5 µL/min/10⁶ cells
CCc1nnc(-c2c(OC)cc(-c3cnc4cc(-c5cnn(C)c5)ccn34)cc2OC)o1	liver microsomes	–	microsomal CLint	< 9.6 µL/min/mg
